# Results gathered from unrelated publications.
# Lines come from different studies, so protocols differ. Values joined by “and” are separate records of one study, mostly repeats; a detail may differ. ± marks the error that the study gave.
Compound,tested on,assay,test system,conditions,how to read,endpoint,result
Nc1nc(-c2ccccc2)nc2[nH]nc(Nc3ccc(C(F)(F)F)cc3)c12,coxsackievirus B3,,"31-1-93, NMRI mice, CVB3 chronic myocarditis","oral, 100 mg/kg twice daily, day 7, dosed days 0 to 6, score scale 0 to 7",direction not given,clinical score,0.1
COc1ccc(Oc2ccc(CN(Cc3ccccc3)Cc3cnc4nc(N)nc(N)c4n3)cc2)cc1,Leishmania infantum,amastigote growth,THP-1-derived macrophages,"10 µM, 72 h",,inhibition,33 ± 10%
Cc1ccc(C(C)C)c(OC2=C(Cl)C(=O)c3ccccc3C2=O)c1,Alternaria alternata,,ITCC 4522,10 µg/mL,,zone of inhibition,16 mm
FC(F)(F)c1cccc(Nc2c(-c3ccccn3)nc3ccccn23)c1,Leishmania infantum,,"macrophages, MHOM/MA(BE)/67/ITMAP263, amastigote",,,IC50,8.06 µM and 5.08 µM
Fc1ccccc1-c1nc2ccn(Cc3ccc(-c4ccc(C(F)(F)F)cc4C(F)(F)F)nn3)cc-2n1,THP-1,pyroptotic LDH release,,"2 µM, 40 min, with: LPS then nigericin",,inhibition,21.6%
CC(=O)NC[C@H]1CN(c2ccc(N3CCOCC3)c(F)c2)C(=O)O1,Staphylococcus epidermidis,,"methicillin-resistant, 10 isolates",pH 5.5,,MIC50,1 µg/mL
COc1ccc(-c2nc3ccc(OC)cn3c2Nc2ccc(F)cc2)nc1,Leishmania infantum,,"macrophages, MHOM/MA(BE)/67/ITMAP263, amastigote",,,IC50,2.69 µM and 2.16 µM
Cc1cc(OC(C)C)ccc1C(=O)C(C)(C)NC(=O)c1sccc1C,Alternaria alternata,mycelial growth,"Japanese pear pathotype, PSA medium","20 °C, suspension concentrate 400 g/L",,EC50,0.99 µg/mL
CC(C)n1ncc2c(C(=O)NCC3(C)CNC3)cc(C3CC3)nc21,Enterovirus D68,cytopathic effect,"RD, US/KY/14-18953",5000 nM,,cell protection,95.6% and 89.4% and 83.1%
C[C@]12CC[C@H](O)CC1=CC[C@@H]1[C@@H]2CC[C@]2(C)C(c3cccnc3)=CC[C@@H]12,THP-1,pyroptotic LDH release,,"2 µM, 40 min, with: LPS then nigericin",,inhibition,-33.4%
Fc1ccc(Nc2c(-c3cc(Cl)ccn3)nc3ccccn23)cc1,Leishmania infantum,,"macrophages, MHOM/MA(BE)/67/ITMAP263, amastigote",,,IC50,3.17 µM and 25.7 µM

# Repeated from above:
Compound,tested on,assay,test system,conditions,how to read,endpoint,result
COc1ccc(-c2nc3ccc(OC)cn3c2Nc2ccc(F)cc2)nc1,Leishmania infantum,,"macrophages, MHOM/MA(BE)/67/ITMAP263, amastigote",,,IC50,2.69 µM and 2.16 µM
